Measured values from different studies.
A part holds a random share of what one study measured.

Sample 1 — method: RNA Bind-n-Seq; form: RNA; sample: in vitro; concentration: 365 nM; baseline: no-protein control; direction: higher = stronger binding
Target: RNA binding protein fox-1 homolog 2, RRM domain, GST-SBP tag (RBFOX2, Homo sapiens, UniProt O43251-10, residues 100-194)
Setting: natural RNA segment, single round, ends assumed
Constant ends, left off below: GGGAGUUCUACAGUCCGACGAUC … UGGAAUUCUCGGGUGCCAA
Construct (chain): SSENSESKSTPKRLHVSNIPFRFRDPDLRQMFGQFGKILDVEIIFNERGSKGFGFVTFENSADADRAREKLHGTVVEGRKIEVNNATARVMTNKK
`AAGGAGGGCUUCCCCUCUCUGCUGCGAGAGACUGGUCUGUGUGAAAUCCACUUCUGGGACAGGCAGUACUGUCUGCAGCGAUACCCCCAAUAAACGGAACUUUUUAACCC`: “RBNS enrichment (R)” 0.309.
For `UCCCUCCCAGCUUUGGAAGCCUCAUCCGCGUGUGUGUGUGUGUGUAUGUGUAGACAAGCUCUCGCUCUGUCACCCAGGCUGGAGUGCAGUGGUGCAAUCAUGGUUCACUG`, “RBNS enrichment (R)” read 0.414.
Under “RBNS enrichment (R)”, `CGUUGUAAGUAACUGAGGUCCAUGUGGAAAAGAUGGCUUGUAUUUUUGAAAUGAUCACAACACACUGUGCAGAAGUGGACAGAUGUUCCAUGGCGUUUGGUUCUCCUUCC` is recorded as 0.575.
`UGGCCUGGCCUCACUGCUUUCAAGGACACAGAUGUCUGCUACCCCUCUUGAACUUGGGUGGGGAACCCCACCCAAAAGCCCCCUUGUUAGCUCUUUGGCAAUUCUCCUUC`: “RBNS enrichment (R)” 0.502.
`GCACAUGCCGUUGCAGCACAAGCUUAUGCUUCCCGUAGCCGUGGCUUUUCAUUCUGCACAGUCCCAGGUCCCAGCUCCCCUCUUAUGGUUUCUGUCAUAAUGUGCUUUAU`: “RBNS enrichment (R)” 0.425.
`AGCCAUGCUGUUGUGAGAUUUUUAGCUGCUGGAAGGCUAGGUAAUCACUGGGUAGUAUCACACAGGUGUGUCUGGGUUGAGAUGUUACUCCUCUGAAUGAAUAGGAGGAU`: “RBNS enrichment (R)” 2.96.
`GGUCUUAGAUACCAGCUACCUACGAGAGAGAGAGAAAUUGGUUUGUAAUAUCAGUGUAAGUAAAAUCCUGAUUCCAUAAACCUGGUUGUAUUUAAAACAAAAAACAAAAC`: “RBNS enrichment (R)” 0.369.
`UGUGGGUGAUGUAAACUUCAAAUUGGGAGAUGUUCCGACCCCCACUCCCAUAUAAGCAUUCAAUCAGUGUAACUUGCAAAAUGCAUAAACAUCCGACAGUUUGAAUUUAU`: “RBNS enrichment (R)” 0.621.
For `GAGCGAGUACUGUUUUGUGGUGACAUCUUAGGUGUUUCCUUUCUCCCAGGCUGCUGCUCUGUGGUAUUUCCAGUCUCAGACUUGUGUUGUGGAGUCAUGGUGUUAGUGUU`, “RBNS enrichment (R)” read 0.623.
`CAUGUCCACUGAAGCCACUGGCAGUGGCUCCCAACCCCCAUCCCAUUAGAAGGGACUUGGCCUGCCCUUUGGAACUGUGCCCUUGUAGAAGAAGUAAAGGACUGAAUCAU` — result for “RBNS enrichment (R)”: 0.478.
`UUUCUAUUCUUGGAGAUAAAAAUUAAAUGGAUCACUGAUAUUUUAGUCAUUCUGCUUCUCAUCUAAAUAUUUCCAUAUUCUGUAUUAGGAGAAAAUUACCCUCCCAGCAC`: “RBNS enrichment (R)” 0.401.
`GUGACCUGUGUAACUUAAAAAAUCUGAGGGUUUGAGAGAGGUUGCUCUAGAUUUCCAAUGACGAUACCCUGGCUGAAUAGGCUUUUCUCUUCCUUGGGCCUUUACUUCUU`: “RBNS enrichment (R)” 0.316.

Sample 2 — method: protein binding microarray; form: double-stranded DNA, one strand shown; sample: in vitro; concentration: not given; baseline: not given; direction: higher = stronger binding
Target: Histone acetyltransferase KAT6A, winged helix 2, GST fusion (KAT6A, Homo sapiens, UniProt Q92794, residues 85-181)
Setting: 8-mer, flanks averaged, mean of 2 arrays, mostly near background
Construct (chain): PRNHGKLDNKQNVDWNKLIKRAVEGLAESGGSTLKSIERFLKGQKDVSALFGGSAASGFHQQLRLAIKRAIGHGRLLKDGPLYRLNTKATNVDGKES
For `GTTTCAGA`, the E-score was 0.0855.
For `AGCCGCCA`, the E-score was 0.0118.
With `ATCATACC` the E-score was 0.0735.
`ACGCCTGA` gave an E-score of 0.195.
`ACCGGCAA` gave an E-score of 0.0142.
`ATCGGCGC` has an E-score of 0.0917.
The E-score of `ATGCTTCG` is reported as 0.128.
`GGAAGAAC` has an E-score of 0.129.
The E-score of `CACTAACC` is reported as -0.0202.
`CTCAACCA` has an E-score of 0.0732.
With `AGCAATGC` the E-score was 0.172.
For `CTTTCTGA`, the E-score was 0.0775.
`ACACGCGG` gave an E-score of 0.198.
The E-score of `GAACGGTA` is reported as -0.117.
`GTACTCCA` has an E-score of 0.00549.
`CAGAATGC` has an E-score of 0.102.
`CGGCACAA` gave an E-score of 0.0526.
With `CGCGACAG` the E-score was 0.129.
`CAGGACCA` has an E-score of 0.0545.

Sample 3 — method: RNA Bind-n-Seq; form: RNA; sample: in vitro; concentration: 1 µM; setting: whole 134-nt RNA, ends assumed; added: 150 mM KCl; baseline: input library; direction: higher = stronger binding
Target: Ras GTPase-activating protein-binding protein 1, RRM domain (G3BP1, Homo sapiens, UniProt Q13283)
Chain of UniProt Q13283 (whole entry, looked up): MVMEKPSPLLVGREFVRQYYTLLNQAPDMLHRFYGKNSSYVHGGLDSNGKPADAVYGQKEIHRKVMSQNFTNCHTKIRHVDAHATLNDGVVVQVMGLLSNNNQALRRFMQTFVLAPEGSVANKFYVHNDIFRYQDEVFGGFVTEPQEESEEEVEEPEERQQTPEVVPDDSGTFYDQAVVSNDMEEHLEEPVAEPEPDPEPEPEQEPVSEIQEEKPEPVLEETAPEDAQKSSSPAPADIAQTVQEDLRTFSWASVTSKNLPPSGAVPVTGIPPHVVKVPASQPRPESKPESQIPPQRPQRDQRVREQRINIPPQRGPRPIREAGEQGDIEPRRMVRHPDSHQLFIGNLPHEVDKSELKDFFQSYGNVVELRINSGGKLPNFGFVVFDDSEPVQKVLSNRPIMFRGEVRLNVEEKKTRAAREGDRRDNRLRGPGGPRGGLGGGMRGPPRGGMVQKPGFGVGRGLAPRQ
Constant ends, left off below: GGGAGUUCUACAGUCCGACGAUC … UGGAAUUCUCGGGUGUCAAGG
For `ACCAUGCAGGUGGGCAUCUUUGGGAAGUGGGGCAAGGGGGGGAUAGGGAGGGGGGUAACACUUUGGGAACAGGUGGUCCCAGGUCGUCUC`, the log2 enrichment was 0.355.
`UCCUGUGCUACACAUCGUAUGUACCGAAUCGGGCCCCCCGGGCCCCCCGGCCCCCCGGGGAAAGUAUUAUGUUACGCCGUUCGGAUCUGC` has a log2 enrichment of -0.515.
With `GAAAAUUUCUCAGUUCUUAAGAAUGCUUGCUGUGGGUAUAGUGCAGGUAUAUUGAAAGGAAUUUUUUUCUUGCAGCGGGAAAGAGACAUG` the log2 enrichment was -0.293.
The log2 enrichment of `ACCAUGCAGGUGGGCAUCUUUGGGAAGUGGGGCAAGGGGGGGAUAGGGAGGGGGGUAACACUUUGGGAACAGGUGGUUCCAGGUCGUUUC` is reported as 1.18.
With `UCCUGUGCUACACAUCGUAUGUACCGAAUCGGGAAAAAGGGUUUUUUUGGGAAAAAGGGAAAGUAUUAUGUUACGCCGUUCGGAUCUGCA` the log2 enrichment was -0.151.
For `GCAGGAAGUAAAAACAAAUGGAAAUGCUUCGGAUAGUGGCAGGGGUGGGGGUUGCUAAGGAAAGGGUGGGAAAGGAGUGGGUAAAGAGUU`, the log2 enrichment was 1.41.
For `ACCAUGCAGGUGGGCAUCUUUGGGAAGUGGGGCAAGGGGGGGAUAGGGAGGGGGGUAACACUUUGGGAACAGGUGGUCCCAGGUCGUAUC`, the log2 enrichment was 0.308.
`CUGUGCUACACAUCGUAUGUACCGAAUCGGGGUUUUUUUGGGUUUUUUUGGUUUUUUUGGGGAAAGUAUUAUGUUACGCCGUUCGGAUCU` gave a log2 enrichment of -0.291.
With `UAACUUUAGAGGAGGAUCUGUUGGAUAUGGCAGUGGACGUGGAUUUGGGGAUGGCUAUAAUGGGUAUGGAGGAGGACCUGGAGGUGGCAA` the log2 enrichment was -0.518.
With `ACCAUGCAGGUGGGCAUCUUUGGGAAGUGGGGCAAGGGAAAGAUAGGGAGGGGGGUAACACUUUGGGAACAGGUGGUCCCAGGUCGUUUC` the log2 enrichment was -0.358.
`GCAGGAAGUAAAAGCAAAUGGAAAUGCUUCGGAUAGUGGCAGGGGUGGGGGUUGCUAAGGAAAGGGUGGGAUGGGAGUGGGUAAAGAGUU` has a log2 enrichment of 0.927.
The log2 enrichment of `UUCCUCAAGUCCUGUGCUACACAUCGUAUGUACCGAAUCGGCGGGCGGCGGAAAGUAUUAUGUUACGCCGUUCGGAUCUGCACUUCCAGC` is reported as -0.0329.
The log2 enrichment of `CACAGACAACACGCAAAAACACAGACACAGAGGGAAGGGGUUGGGAUGGGGACAGGGUGCACAGCAGGGCGGGGUAGGACCCCAGCCCCU` is reported as 0.00789.
For `ACCAUGCAGGUGGGCUUCUUUGGGAAGUGGGGCAAGGGGGGGAUAGGGAGGGGGGUAACACUUUGGGAACAGGUGGUCCCAGGUCGUUUC`, the log2 enrichment was -0.501.

Sample 4 — method: protein-binding microarray; form: double-stranded DNA, one strand shown; sample: in vitro; concentration: 2540 nM top; setting: 60-bp whole probe; added: salmon DNA 0.4 mg/ml; baseline: random background probes; direction: higher = stronger binding; constant ends, left off below: GCCTAGCAC … GTCTTGATTCGCTTGACGCTGCTG
Target: Interferon regulatory factor 3, full length, phosphomimetic (IRF3, Homo sapiens, UniProt Q14653, residues 1-427, S386D/S396D/S398D/S402D/T404D/S405D)
Target sequence (chain): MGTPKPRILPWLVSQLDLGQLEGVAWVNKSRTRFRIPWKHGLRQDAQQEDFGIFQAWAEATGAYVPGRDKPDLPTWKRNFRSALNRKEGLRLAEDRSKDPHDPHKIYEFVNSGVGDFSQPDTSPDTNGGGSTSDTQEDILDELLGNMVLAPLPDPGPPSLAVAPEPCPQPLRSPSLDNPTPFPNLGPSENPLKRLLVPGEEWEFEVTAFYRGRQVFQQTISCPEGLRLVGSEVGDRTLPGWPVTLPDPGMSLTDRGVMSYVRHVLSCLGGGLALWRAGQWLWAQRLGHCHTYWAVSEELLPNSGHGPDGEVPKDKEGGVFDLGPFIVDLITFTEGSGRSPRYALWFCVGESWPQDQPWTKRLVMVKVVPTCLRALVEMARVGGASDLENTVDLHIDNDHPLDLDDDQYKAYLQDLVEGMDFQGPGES
Under “fitted relative affinity”, `GACGAACTGAGTTTCGAGAGGTGCTAG` is recorded as 0.818 z-score.
Under “fitted relative affinity”, `GACGGCTCCGGTTTCGGGACGTGCTAG` is recorded as 2.38 z-score.
Under “fitted relative affinity”, `TCACCAATGCTTCTGGTACTGTGCTAG` is recorded as -0.354 z-score.
`TTAGATTTCGAGTTTCGATTAGTGCTA`: “fitted relative affinity” 3 z-score.
`ACAGCCTTTCTAACTTGAAAGTGCTAG`: “fitted relative affinity” 1.66 z-score.
`TCAAGCAAAAATGATTGACTGTGCTAG` — result for “fitted relative affinity”: -0.736 z-score.
`TTAGGTTTCATTTCCCTTTAGTGCTAG`: “fitted relative affinity” 6.44 z-score.
`TCACGTCTCCACCTGGGACTGTGCTAG` — result for “fitted relative affinity”: 0.203 z-score.
`GACAGTTTCGACTATCGGGACGTGCTA` — result for “fitted relative affinity”: 2.77 z-score.
`TCATGAAGCGCTTCTCGAACTGTGCTA`: “fitted relative affinity” -0.165 z-score.
`TCAATTCTCACTGCAGCACTGTGCTAG` — result for “fitted relative affinity”: 0.565 z-score.
Under “fitted relative affinity”, `TTAGGTCTCGGCCTCGGTTAGTGCTAG` is recorded as -0.483 z-score.
For `TTAGATTACAGTCTCGATTAGTGCTAG`, “fitted relative affinity” read 0.791 z-score.
For `GACGAAGTGGGGTTTCGAGACGTGCTA`, “fitted relative affinity” read 0.331 z-score.
`TTAGGTCTCCTCATCCTTTAGTGCTAG` — result for “fitted relative affinity”: 0.58 z-score.
`TCAGGTATTTTTTTGTAACTGTGCTAG` — result for “fitted relative affinity”: 0.185 z-score.
`TCAGATTTCGGGTTTCGATTAGTGCTA` — result for “fitted relative affinity”: 3.45 z-score.
For `TTAAGTCTCCTTCTCCTTTAGTGCTAG`, “fitted relative affinity” read 5.39 z-score.
For `GGGGAGCAGGGTGGCCCTGTGTGCTAG`, “fitted relative affinity” read -1.41 z-score.
Under “fitted relative affinity”, `GTCTCTTGTTCTCTCTGGCCGTGCTAG` is recorded as 0.43 z-score.
For `TTAGGTTTCGACTTTCCGTTAGTGCTA`, “fitted relative affinity” read 3.92 z-score.

Some of these lines once more (sample 2):
The E-score of `CACTAACC` is reported as -0.0202.
The E-score of `GAACGGTA` is reported as -0.117.
`ACACGCGG` gave an E-score of 0.198.
`ATCGGCGC` has an E-score of 0.0917.
`CAGAATGC` has an E-score of 0.102.
